Experimental data from different studies.
A part holds a random share of what one study measured. Values joined by “and” are separate records of one study, mostly repeats; a detail may differ. Positions count from the first letter of the parent shown.
UniProt P28335, sequence (whole entry, looked up): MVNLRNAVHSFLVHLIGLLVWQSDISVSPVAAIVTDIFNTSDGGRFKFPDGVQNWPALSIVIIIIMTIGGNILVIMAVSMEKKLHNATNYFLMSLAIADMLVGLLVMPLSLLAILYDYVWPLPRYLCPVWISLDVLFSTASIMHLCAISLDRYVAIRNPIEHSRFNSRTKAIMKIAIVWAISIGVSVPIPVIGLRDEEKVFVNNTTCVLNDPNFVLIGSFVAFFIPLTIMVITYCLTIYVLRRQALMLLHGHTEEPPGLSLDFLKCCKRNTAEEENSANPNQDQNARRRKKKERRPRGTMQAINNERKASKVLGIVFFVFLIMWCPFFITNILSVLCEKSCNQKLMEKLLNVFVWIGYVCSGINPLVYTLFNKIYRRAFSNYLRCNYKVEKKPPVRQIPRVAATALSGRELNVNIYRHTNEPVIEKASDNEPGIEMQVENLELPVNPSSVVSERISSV

Study 1 — target: CCNB1, cyclin fold, Cln2 fusion (human); technique: yeast growth competition, sequencing; sample: yeast; setting: weak parent motif; relative to: not given; direction: higher = stronger binding; measurement: normalised enrichment score; starting sequence: viral docking peptide; KKAKRRLFTISDS
KKAKRRLFTASDS [I10A]: 0.536
KKAKRRLLTISDS [F8L]: 0.684
KKAKRRLFTISAS [D12A]: 0.554
KAAKRRLFTISDS [K2A]: 0.679
KKAKKRLLTISDS [R5K F8L]: 0.0943
KKAKRRLFTISDA [S13A]: 0.697
KKAKRRLATISDS [F8A]: 1.51

Other studies, line by line
CCOc1cc(=O)n2c(c1C(=O)N1CCC3(CC1)OCCO3)CCCCC2  remaining compound (mouse, microsomes or S9; 2 µM, 0.5 h): 69.7%
COc1ccc(C(CN(C)C)C2(O)CCCCC2)cc1 (centres unmarked)  infection rate (Plasmodium berghei; inhibitor; Huh-7, GFP-expressing, liver stage; 10 µM, 24 h; relative to: untreated control): 101%
CNC(=O)c1ccc(Nc2ncc(C(F)(F)F)c(NCc3nccnc3N(C)S(C)(=O)=O)n2)cc1  inhibition (5-hydroxytryptamine receptor 2C (HTR2C, Homo sapiens, UniProt P28335); binding, radioligand binding; 10 µM): 16.9%
CCC1C(c2ccccc2)NC(c2ccccc2)CC1(O)c1ccc(F)cc1 (centres unmarked)  remaining compound (mouse, microsomes or S9; 2 µM, 0.5 h): 74.5%
O=C1CCC(N2Cc3c(ccc4c3OCC43CCN(Cc4ccccc4)CC3)C2=O)C(=O)N1 (centres unmarked)  Vss (rat Sprague Dawley male, plasma; intravenous, 1.0 mg/kg): 3.37 L/kg and 3.21 L/kg
COc1cc(C(=O)N2CCC(N3CCN(C)CC3)CC2)ccc1Nc1ncc2c(n1)N(C)c1ccccc1C(=O)N2C  inhibition (human PBMC; probe labeling, inhibitor, KiNativ profiling, item: YAAVkIHQLNK; cell lysate; concentration not given, LYS1 site, added: ATP acyl-phosphate probe 0.1 µM): 8.3%
c1ccc2nc(N3CCNCC3)ccc2c1  infection rate (Plasmodium berghei; inhibitor; Huh-7, GFP-expressing, liver stage; 10 µM, 24 h; relative to: untreated control): 69.8%
